Assay results gathered from unrelated publications.
Each numbered part is a random draw from the data of one study; scales do not carry over between parts.
Sequence of UniProt P35348 (whole entry, looked up): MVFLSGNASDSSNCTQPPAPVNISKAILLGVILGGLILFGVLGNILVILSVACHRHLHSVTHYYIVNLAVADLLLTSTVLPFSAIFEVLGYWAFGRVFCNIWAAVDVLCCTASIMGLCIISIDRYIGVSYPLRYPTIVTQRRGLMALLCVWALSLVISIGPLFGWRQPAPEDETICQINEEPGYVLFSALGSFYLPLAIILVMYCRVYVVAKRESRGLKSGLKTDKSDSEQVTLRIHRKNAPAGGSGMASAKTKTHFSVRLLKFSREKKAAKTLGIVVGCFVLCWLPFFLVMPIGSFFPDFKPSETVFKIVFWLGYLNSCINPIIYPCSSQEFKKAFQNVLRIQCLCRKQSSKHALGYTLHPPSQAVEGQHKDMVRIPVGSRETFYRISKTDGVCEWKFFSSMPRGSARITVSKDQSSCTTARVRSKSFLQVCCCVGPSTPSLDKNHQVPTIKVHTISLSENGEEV
Sequence of UniProt P13945 (whole entry, looked up): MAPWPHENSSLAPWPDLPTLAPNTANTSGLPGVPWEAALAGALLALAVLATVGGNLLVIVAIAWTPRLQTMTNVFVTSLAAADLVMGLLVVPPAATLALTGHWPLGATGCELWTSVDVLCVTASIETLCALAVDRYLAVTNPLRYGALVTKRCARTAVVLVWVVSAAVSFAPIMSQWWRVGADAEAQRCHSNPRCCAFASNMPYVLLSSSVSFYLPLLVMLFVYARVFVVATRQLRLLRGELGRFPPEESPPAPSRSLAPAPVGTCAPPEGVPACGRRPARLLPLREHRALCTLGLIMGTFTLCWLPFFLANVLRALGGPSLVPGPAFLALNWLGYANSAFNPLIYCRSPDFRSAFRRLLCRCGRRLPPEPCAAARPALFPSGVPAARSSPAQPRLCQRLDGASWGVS
Sequence of UniProt Q9Y5N1 (whole entry, looked up): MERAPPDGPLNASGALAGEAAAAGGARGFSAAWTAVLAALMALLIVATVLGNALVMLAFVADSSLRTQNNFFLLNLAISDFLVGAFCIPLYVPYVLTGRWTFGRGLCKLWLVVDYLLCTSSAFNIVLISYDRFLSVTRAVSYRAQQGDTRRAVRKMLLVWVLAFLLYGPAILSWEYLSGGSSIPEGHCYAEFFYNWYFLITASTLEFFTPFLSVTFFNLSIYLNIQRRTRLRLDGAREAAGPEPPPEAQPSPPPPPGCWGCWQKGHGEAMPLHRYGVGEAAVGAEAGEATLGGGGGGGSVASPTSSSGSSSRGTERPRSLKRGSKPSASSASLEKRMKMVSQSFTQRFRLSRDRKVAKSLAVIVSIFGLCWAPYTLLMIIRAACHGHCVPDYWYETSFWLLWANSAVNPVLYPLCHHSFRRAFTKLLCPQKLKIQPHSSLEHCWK
Sequence of UniProt P47898 (whole entry, looked up): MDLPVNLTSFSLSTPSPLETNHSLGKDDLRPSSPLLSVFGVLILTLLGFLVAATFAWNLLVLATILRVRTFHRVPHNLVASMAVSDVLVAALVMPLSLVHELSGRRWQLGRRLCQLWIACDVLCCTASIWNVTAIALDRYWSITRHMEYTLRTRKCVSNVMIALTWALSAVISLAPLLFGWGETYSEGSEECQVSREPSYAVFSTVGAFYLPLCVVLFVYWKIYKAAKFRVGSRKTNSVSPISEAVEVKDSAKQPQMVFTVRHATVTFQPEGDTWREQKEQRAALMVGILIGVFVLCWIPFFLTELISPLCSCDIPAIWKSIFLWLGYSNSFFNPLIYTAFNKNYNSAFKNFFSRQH

Set 1
SMILES: O=C(O)[C@H]1[C@H](Cn2nnc3ccccc3c2=O)CC[C@@H]1C(=O)c1ccc(OCCC2CCOCC2)cc1
Observed: ligand displacement
Concentration: 10 µM
target | method | inhibition
HRH3 (Homo sapiens, UniProt Q9Y5N1) | – | -2.95%
DRD1 (Homo sapiens, UniProt P21728) | – | 1.16%
HTR1D (Homo sapiens, UniProt P28221) | radioligand | 4.82%
HTR5A (Homo sapiens, UniProt P47898) | – | 6.91%
HRH2 (Homo sapiens, UniProt P25021) | – | 12.6%
ADRA2B (Homo sapiens, UniProt P18089) | – | 3.34%
ADRB1 (Homo sapiens, UniProt P08588) | – | -17.4%
DRD3 (Homo sapiens, UniProt P35462) | – | 7.27%
CHRM4 (Homo sapiens, UniProt P08173) | – | -5.24%
ADRA1A (Homo sapiens, UniProt P35348) | – | -10.9%
ADRB3 (Homo sapiens, UniProt P13945) | – | -22.9%

Set 2
Target: Calcium/calmodulin-dependent protein kinase type II subunit alpha (CAMK2A, Homo sapiens, UniProt Q9UQM7)
Sequence of UniProt Q9UQM7 (whole entry, looked up): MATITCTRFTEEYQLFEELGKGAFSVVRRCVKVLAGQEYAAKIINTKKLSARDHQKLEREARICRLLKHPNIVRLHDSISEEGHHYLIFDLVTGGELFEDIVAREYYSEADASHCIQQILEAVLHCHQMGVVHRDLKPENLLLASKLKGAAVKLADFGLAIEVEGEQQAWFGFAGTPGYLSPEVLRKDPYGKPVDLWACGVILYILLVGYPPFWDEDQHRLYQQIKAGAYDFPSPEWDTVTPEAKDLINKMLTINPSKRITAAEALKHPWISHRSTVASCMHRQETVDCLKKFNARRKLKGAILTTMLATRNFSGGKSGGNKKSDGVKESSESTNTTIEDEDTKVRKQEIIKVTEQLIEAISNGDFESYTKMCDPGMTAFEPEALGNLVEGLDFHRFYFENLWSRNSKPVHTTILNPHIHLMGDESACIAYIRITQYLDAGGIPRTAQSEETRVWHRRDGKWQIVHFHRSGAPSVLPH
Observed: enzyme activity
Action: inhibitor
Concentration: 10 µM
SMILES | inhibition [%]
NCCCS(=O)(=O)O | -1
CO[C@H]1/C=C/O[C@@]2(C)Oc3c(C)c(O)c4c(O)c(c(/C=N/N5CCN(C)CC5)c(O)c4c3C2=O)NC(=O)/C(C)=C\C=C\[C@H](C)[C@H](O)[C@@H](C)[C@@H](O)[C@@H](C)[C@H](OC(C)=O)[C@@H]1C | -1
CC(C)N(CC[C@H](c1ccccc1)c1cc(CO)ccc1O)C(C)C | 0
CC/C=C\CCO | 3
O=C(O)c1cc(=O)c2ccccc2[nH]1 | 38
O=C(O)C[C@@H]1C(=O)O[C@H]2[C@H](OC(=O)c3cc(O)c(O)c(O)c3)[C@@H](OC(=O)c3cc(O)c(O)c4c3[C@H]1[C@@H](O)C(=O)O4)[C@H](OC(=O)c1cc(O)c(O)c(O)c1)O[C@@H]2COC(=O)c1cc(O)c(O)c(O)c1 | -102
CN(CC(=O)O)C(=N)N | 8
CCOC(=O)C(=O)C(C)C(=O)OCC (stereo not shown) | -14
NC(N)=Nc1nc(CSCC/C(N)=N/S(N)(=O)=O)cs1 | 3
CS(=O)(=O)c1ccc([C@@H](O)[C@@H](CO)NC(=O)C(Cl)Cl)cc1 | 3
COc1ccc(C(=O)CC(=O)c2ccc(C(C)(C)C)cc2)cc1 | 7
CO[C@H]1C[C@@H]2CC[C@@H](C)[C@@](O)(O2)C(=O)C(=O)N2CCCC[C@H]2C(=O)O[C@H]([C@H](C)C[C@@H]2CC[C@@H](OC(=O)C(C)(CO)CO)[C@H](OC)C2)CC(=O)[C@H](C)/C=C(\C)[C@@H](O)[C@@H](OC)C(=O)[C@H](C)C[C@H](C)/C=C/C=C/C=C/1C | -8

Set 3
Species: mouse
Matrix: microsomes or S9
Concentration: 2 µM
Time: 0.5 h
SMILES | remaining compound
COc1ccc(C2N(C(C)=O)c3ccccc3N2S(=O)(=O)c2ccc(C)cc2)cc1 (stereo not shown) | 0%
CC(C)/N=C1\ON(C(C)C)C(C)(C)N1c1ccccc1 | 1.6%
Cc1cccc(-n2ccnc2S(=O)(=O)C(C)C(=O)N(C(C)C)C(C)C)c1 (stereo not shown) | < 1%
Cc1cccc(OCCn2cnc3c(cnn3-c3cccc(C(F)(F)F)c3)c2=O)c1 | 96.3%
COc1cc(N2CCN(C(C)=O)CC2)ccc1Nc1ncc(Cl)c(Nc2ccc(N3CCN(S(C)(=O)=O)CC3)cc2OC)n1 | 0%
O=C(O)c1ccc(C2(c3ccc(C(=O)O)cc3)OC(=O)c3ccccc32)cc1 | 89.1%
O=C(c1cc2n(n1)CCN(C(=O)c1cccc3[nH]ccc13)C2)N1CCOCC1 | 87.4%
O=c1[nH]ncn2c1cc1cc(Br)ccc12 | 42.1%
Cc1ccccc1-c1ccc(-n2cncc2C(=O)N2Cc3ccccc3C2)cc1 | 43.4%
CCOc1cccc(C2c3cccn3-c3sc4c(c3CN2C(=O)Nc2ccc(C)c(F)c2)CCCC4)c1 (stereo not shown) | 7.35%
Cc1ccc(-n2nc(C)c3c2CC(c2ccco2)CC3=O)cc1 (stereo not shown) | 21%
Cc1ccc(C2(c3ccccc3)C=C(c3ccccc3)N(S(=O)(=O)c3ccc(C)cc3)O2)cc1 (stereo not shown) | 0.85%
O=C1CCCc2sc(CN3CCOCC3)cc21 | 80.6%

Set 4
Target: DNA polymerase theta, ATPase domain (POLQ, Homo sapiens, UniProt O75417)
Sequence of UniProt O75417 (whole entry, unmodified, looked up): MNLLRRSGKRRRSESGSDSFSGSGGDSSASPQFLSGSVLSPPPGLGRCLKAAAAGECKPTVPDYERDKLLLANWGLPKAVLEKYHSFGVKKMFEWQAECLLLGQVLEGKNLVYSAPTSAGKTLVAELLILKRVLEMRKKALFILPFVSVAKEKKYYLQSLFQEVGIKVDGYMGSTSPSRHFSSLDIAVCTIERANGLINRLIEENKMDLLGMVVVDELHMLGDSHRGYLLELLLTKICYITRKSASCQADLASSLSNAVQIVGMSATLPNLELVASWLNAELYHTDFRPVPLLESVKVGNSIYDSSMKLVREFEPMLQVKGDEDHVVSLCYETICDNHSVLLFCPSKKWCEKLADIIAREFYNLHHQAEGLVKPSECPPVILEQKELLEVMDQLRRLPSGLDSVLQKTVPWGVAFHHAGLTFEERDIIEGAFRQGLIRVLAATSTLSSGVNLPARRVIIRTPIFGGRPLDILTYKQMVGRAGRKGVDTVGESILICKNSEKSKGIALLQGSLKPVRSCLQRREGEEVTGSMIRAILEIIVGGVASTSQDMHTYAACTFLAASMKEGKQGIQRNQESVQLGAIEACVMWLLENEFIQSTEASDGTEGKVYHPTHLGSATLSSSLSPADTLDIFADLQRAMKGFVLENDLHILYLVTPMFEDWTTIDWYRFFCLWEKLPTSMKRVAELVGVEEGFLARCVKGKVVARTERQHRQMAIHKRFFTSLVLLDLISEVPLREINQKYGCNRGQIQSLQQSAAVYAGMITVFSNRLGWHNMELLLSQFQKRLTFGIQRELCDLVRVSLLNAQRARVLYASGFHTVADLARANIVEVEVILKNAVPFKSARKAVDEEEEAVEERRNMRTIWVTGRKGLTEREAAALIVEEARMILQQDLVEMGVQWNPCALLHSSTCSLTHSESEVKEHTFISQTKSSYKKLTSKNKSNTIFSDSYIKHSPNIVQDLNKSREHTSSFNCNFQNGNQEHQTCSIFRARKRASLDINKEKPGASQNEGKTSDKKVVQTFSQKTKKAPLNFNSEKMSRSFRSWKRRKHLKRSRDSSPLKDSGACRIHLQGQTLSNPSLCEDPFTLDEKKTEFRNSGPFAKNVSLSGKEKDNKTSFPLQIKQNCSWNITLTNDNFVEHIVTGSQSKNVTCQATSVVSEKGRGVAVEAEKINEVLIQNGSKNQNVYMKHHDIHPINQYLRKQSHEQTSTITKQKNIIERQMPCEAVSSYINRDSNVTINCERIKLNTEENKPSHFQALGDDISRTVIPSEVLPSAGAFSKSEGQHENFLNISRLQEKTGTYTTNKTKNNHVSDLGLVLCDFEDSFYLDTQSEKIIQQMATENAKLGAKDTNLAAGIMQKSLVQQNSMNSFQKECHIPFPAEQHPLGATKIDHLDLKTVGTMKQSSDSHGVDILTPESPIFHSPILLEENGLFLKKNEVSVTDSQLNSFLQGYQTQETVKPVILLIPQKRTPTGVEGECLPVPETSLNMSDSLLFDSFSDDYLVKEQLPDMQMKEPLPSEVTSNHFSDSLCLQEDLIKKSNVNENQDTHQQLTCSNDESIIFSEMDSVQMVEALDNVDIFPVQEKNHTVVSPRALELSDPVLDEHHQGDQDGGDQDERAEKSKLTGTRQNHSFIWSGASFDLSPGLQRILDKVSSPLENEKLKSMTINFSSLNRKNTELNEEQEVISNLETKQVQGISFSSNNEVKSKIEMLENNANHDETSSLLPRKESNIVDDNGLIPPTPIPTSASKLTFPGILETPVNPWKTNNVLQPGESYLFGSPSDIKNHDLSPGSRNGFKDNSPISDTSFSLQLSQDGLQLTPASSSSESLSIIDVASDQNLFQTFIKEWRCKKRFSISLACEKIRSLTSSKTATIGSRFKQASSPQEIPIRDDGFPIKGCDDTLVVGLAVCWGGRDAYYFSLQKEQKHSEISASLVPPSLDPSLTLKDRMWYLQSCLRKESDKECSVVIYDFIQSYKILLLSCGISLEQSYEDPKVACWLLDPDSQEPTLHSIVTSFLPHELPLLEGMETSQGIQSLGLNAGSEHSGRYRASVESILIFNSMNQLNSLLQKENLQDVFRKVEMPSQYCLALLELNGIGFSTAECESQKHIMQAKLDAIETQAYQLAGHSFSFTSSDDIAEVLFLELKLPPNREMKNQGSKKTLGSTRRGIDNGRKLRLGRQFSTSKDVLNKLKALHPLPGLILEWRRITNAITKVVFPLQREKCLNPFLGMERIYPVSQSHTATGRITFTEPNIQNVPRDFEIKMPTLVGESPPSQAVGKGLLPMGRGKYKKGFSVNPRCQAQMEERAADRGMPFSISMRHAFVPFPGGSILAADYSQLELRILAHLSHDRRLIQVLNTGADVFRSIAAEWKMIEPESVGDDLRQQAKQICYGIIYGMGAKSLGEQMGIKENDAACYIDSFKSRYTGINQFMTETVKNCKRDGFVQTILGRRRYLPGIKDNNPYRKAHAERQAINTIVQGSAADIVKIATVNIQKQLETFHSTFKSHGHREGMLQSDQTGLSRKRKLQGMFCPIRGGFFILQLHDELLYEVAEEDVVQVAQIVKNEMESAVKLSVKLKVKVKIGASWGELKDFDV
Observed: enzyme activity
Action: inhibitor
Concentration: 77 µM
Reference: untreated
Structure (SMILES) | remaining activity
CCCCC1(COC(=O)CCC(=O)O)C(=O)N(c2ccccc2)N(c2ccccc2)C1=O | 111%
OC[C@@H](O)CN1CCN(c2ccccc2)CC1 | 92%
CCCCC[C@H](O)/C=C/[C@@H]1[C@@H](C/C=C\CCCC(=O)O)[C@@H](O)C[C@H]1O | 100%
CC1=C(/C=C/C(C)=C/C=C/C(C)=C/C=C/C=C(C)/C=C/C=C(C)/C=C/C2=C(C)C(=O)[C@@H](O)CC2(C)C)C(C)(C)C[C@H](O)C1=O | 86.9%
CCn1cc(C(=O)O)c(=O)c2cnc(N3CCCC3)nc21 | 101%
CC[C@H](CO)Nc1nc(NCc2ccccc2O)c2ncn(C(C)C)c2n1 | 108%
COc1ccc(C(C)=O)c(O)c1 | 101%

Excerpt of the above (set 1):
target | method | inhibition
ADRA2B (Homo sapiens, UniProt P18089) | – | 3.34%
ADRB3 (Homo sapiens, UniProt P13945) | – | -22.9%
HTR1D (Homo sapiens, UniProt P28221) | radioligand | 4.82%
HTR5A (Homo sapiens, UniProt P47898) | – | 6.91%
